Results from different studies.
Values joined by “and” are separate records of one study, mostly repeats; a detail may differ. ± marks the error that the study gave.
Sequence of UniProt Q007T0 (whole entry, looked up): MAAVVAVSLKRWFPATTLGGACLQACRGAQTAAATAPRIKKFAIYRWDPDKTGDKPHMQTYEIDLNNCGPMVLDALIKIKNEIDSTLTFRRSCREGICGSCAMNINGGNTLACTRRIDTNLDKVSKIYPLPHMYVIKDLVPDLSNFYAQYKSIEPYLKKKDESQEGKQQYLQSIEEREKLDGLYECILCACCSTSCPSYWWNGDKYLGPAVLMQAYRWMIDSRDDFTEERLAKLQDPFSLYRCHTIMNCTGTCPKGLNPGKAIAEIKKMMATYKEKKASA
Sequence of UniProt Q00987 (whole entry, looked up): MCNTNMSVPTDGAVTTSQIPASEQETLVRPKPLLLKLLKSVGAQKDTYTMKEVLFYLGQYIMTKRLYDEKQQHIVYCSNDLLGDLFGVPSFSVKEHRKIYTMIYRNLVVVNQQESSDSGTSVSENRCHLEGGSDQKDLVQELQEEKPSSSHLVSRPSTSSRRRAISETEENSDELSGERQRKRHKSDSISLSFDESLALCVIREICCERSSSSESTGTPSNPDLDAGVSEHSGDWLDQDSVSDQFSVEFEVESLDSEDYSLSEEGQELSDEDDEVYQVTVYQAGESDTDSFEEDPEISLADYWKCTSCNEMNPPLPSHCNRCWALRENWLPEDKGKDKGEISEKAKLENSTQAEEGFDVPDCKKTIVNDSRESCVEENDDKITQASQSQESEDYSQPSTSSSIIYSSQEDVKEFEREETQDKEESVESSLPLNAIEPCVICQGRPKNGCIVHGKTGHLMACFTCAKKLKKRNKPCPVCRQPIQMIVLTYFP
Sequence of UniProt D0VWV4 (whole entry, looked up): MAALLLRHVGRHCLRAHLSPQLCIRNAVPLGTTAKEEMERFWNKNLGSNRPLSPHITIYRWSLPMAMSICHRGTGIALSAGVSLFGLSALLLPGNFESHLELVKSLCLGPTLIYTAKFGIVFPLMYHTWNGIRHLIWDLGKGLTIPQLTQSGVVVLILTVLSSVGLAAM
Sequence of UniProt A5GZW8 (whole entry, looked up): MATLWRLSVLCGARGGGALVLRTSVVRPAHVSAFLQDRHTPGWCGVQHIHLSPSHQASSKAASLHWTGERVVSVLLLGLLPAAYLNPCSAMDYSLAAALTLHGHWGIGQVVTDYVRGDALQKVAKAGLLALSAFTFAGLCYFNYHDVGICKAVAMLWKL
Sequence of UniProt Q5XJY4 (whole entry, looked up): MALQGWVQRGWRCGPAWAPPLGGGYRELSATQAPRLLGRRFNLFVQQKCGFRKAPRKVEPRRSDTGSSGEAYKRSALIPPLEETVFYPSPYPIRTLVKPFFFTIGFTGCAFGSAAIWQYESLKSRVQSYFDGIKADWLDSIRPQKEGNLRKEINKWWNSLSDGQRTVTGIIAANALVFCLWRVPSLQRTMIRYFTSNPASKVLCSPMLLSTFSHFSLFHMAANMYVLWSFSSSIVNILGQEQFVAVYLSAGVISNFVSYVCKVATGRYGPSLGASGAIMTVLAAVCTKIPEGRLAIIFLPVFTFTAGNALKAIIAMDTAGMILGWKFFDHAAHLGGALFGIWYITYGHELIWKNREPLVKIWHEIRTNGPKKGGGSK
Sequence of UniProt Q6DWJ6 (whole entry, looked up): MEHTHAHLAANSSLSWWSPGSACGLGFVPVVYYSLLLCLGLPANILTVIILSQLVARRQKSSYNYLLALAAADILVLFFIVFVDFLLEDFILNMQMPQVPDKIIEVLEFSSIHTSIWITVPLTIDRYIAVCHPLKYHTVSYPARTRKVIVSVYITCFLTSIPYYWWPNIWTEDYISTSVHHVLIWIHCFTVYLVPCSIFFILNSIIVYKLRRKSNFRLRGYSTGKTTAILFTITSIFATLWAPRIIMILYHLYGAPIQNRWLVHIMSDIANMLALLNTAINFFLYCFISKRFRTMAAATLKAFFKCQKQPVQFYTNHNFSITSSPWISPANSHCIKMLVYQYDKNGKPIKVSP
Sequence of UniProt P0A988 (whole entry, unmodified, looked up): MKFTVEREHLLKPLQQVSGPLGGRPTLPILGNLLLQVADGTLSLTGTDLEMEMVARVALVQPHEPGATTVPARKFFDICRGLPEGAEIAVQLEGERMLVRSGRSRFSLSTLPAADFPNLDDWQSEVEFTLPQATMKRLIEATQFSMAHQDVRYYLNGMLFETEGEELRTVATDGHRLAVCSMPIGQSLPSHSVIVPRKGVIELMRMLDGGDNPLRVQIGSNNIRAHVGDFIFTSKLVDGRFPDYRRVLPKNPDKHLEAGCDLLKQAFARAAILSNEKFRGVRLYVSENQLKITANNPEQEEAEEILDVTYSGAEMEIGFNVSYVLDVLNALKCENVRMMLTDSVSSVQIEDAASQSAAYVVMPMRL
Sequence of UniProt Q9UH17 (whole entry, looked up): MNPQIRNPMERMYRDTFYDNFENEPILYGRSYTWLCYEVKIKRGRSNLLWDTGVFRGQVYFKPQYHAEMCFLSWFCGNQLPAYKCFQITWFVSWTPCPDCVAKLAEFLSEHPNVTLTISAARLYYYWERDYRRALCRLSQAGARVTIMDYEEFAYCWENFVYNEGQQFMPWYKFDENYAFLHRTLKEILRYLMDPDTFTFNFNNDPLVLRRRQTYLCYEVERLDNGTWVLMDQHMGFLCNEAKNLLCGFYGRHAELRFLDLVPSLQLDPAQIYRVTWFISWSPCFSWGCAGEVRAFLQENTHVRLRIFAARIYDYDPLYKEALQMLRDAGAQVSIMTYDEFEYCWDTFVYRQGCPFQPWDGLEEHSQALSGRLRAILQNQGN
Sequence of UniProt Q9ULC6 (whole entry, looked up): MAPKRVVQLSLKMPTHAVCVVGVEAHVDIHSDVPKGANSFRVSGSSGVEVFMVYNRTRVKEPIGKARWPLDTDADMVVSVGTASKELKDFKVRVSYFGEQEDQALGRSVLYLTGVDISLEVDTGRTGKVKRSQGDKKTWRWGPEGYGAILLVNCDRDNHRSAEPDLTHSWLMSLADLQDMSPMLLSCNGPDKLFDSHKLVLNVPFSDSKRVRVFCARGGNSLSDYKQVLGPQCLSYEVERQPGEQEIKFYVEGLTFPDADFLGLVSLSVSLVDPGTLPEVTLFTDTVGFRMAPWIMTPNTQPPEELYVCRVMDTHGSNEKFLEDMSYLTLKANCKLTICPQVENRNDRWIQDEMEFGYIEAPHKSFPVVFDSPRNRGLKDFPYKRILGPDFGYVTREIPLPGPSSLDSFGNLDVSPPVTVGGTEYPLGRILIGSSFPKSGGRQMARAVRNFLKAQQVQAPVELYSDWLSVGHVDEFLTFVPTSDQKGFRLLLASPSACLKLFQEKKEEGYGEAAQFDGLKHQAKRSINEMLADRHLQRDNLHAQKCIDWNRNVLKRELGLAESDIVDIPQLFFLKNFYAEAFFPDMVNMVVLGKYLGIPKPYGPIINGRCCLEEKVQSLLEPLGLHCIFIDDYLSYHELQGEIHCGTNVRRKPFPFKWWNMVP
Sequence of UniProt Q7L7X3 (whole entry, looked up): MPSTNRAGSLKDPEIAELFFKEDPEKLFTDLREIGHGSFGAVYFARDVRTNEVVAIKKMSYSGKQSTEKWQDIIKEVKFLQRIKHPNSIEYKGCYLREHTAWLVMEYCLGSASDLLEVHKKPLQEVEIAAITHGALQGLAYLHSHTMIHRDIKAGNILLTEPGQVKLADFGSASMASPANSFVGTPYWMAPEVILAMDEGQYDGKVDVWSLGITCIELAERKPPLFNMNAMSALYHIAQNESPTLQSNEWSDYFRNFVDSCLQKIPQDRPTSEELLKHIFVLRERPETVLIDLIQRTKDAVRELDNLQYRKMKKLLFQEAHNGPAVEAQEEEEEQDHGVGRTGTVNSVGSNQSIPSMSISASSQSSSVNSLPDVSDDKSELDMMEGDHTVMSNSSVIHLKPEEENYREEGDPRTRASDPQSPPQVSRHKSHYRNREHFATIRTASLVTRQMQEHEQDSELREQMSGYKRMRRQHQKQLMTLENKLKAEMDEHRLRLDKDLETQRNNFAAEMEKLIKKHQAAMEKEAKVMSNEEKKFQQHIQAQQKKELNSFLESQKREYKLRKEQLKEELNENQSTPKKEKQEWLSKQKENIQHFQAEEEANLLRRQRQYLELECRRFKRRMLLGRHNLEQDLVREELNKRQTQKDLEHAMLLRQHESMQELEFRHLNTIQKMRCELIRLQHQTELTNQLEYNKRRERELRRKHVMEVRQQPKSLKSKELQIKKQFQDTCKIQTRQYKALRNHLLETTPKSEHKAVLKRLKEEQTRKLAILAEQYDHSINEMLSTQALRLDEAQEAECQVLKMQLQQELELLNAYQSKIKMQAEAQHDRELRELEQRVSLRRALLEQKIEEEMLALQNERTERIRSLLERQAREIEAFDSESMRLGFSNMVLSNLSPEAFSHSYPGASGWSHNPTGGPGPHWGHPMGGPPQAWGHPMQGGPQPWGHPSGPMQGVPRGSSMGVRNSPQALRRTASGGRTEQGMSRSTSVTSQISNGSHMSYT
Sequence of UniProt P07099 (whole entry, looked up): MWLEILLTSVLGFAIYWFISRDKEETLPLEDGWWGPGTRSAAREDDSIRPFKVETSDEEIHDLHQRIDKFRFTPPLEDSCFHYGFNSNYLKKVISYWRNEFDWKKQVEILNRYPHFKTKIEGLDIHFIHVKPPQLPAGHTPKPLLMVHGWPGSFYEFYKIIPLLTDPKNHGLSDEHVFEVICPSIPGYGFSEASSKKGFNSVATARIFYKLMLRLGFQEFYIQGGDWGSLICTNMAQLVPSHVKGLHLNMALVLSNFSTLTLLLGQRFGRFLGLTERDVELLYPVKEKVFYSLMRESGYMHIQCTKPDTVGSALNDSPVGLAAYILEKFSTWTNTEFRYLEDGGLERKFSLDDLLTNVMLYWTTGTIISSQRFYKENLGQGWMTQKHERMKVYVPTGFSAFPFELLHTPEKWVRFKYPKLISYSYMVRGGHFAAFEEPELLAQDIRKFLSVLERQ

Compound | target | assay | system | setting | scale | quantity | result
CC(=O)N[C@@H](CCC(N)=O)C(=O)N[C@@H](CC1CCCCC1)C(=O)N[C@@H](CNC(=O)CCl)C(=O)N[C@@H](CC(C)C)C(=O)N[C@@H](Cc1ccccc1)C(=O)O | Beta sliding clamp (Escherichia coli, UniProt P0A988) | binding, isothermal titration calorimetry | – | 25 °C | – | ΔH | -11.7 kcal/mol
CN(C)CCCSC(=S)N1CCN(C(=O)/C=C/c2coc3ccccc3c2=O)CC1 | Nucleoprotein (N, Tomato spotted wilt virus, UniProt P25999, R94A/Y184A) | binding, microscale thermophoresis | – | 250 µM | dose series | MST response | 0.911 a.u.
C#CCCCCOc1ccc2c(c1)CCCN2C(=O)CCl | Epoxide hydrolase 1 (EPHX1, Homo sapiens, UniProt P07099) | mass spectrometry profiling | H460 cell lysate | 100 µM over 10 µM, UniProt P07099 | reference: high over low concentration | reactivity ratio | 1.49
COCC1CCCCN1C(=O)n1cc(C(O)(c2ccccc2)c2ccccc2)nn1 (centres unmarked) | Presenilin-associated rhomboid-like protein, mitochondrial (Parl, Mus musculus, UniProt Q5XJY4) | probe labelling, inhibitor, competitive ABPP-SILAC, item: Parl | mouse T cells | concentration not given, 4 h, in situ, single peptide | reference: treated over DMSO, lower = more inhibition | SILAC ratio | 1.14 and 1.27 and 1.48 and 1.66 and 1.84
O=C1NC(=O)c2c1c1cc(F)c[n+]3c1c1c2c2cc(O)ccc2[n]1[Ru-4]312([N]=C=S)[S+]3CC[S+]1CC[S+]2CC3 (centres unmarked) | Serine/threonine-protein kinase TAO1 (TAOK1, Homo sapiens, UniProt Q7L7X3) | enzyme activity | – | 100 nM, human enzyme, together with: 10 µM ATP | reference: untreated | remaining activity | 96%
C=CC(=O)Nc1cc(-c2ccc(C(=O)N3CCCC(O)(CC)C3)cc2)ccc1F (centres unmarked) | DNA dC->dU-editing enzyme APOBEC-3B, C-terminal domain (Homo sapiens, UniProt Q9UH17) | covalent adduct, intact protein MS | – | 1 h, 20-fold excess, 500 µM | – | unmodified protein | 65% and 56%
Cc1c(Cl)c(=O)oc2cc(OCCCCCC[Se]C#N)ccc12 | Carbonic anhydrase 12 (CA12, Homo sapiens, UniProt O43570) | stopped-flow CO2 hydration | – | – | reference: Ki CA I over Ki CA XII | selectivity ratio | > 1110
C[C@H](NCc1ccc(-c2ccc(C(F)(F)F)cc2)cc1)C(N)=O | Muscarinic acetylcholine receptor M4 (CHRM4, Homo sapiens, UniProt P08173) | radioligand binding | – | 1 µM, together with: [3H]N-methylscopolamine 0.80 nM | – | inhibition of binding | 3%
CC(C)CC(O)(CC(C)C)c1cn(C(=O)N2CCCC2)nn1 | Dipeptidyl peptidase 9 (Dpp9, Mus musculus, UniProt Q8BVG4) | probe labelling, inhibitor, item: Dpp9 | mouse, brain | i.p., 0.8 mg/kg, 4 h, protein level | reference: treated over vehicle mice, lower = stronger inhibition | activity ratio-of-ratios | 0.9
CCCCC/C=C\C/C=C\C/C=C\C/C=C\CCCC(=O)NCCc1ccc(O)c(O)c1 | Transient receptor potential cation channel subfamily V member 1 (Trpv1, Mus musculus, UniProt Q704Y3, D577E) | ion current, agonist, whole-cell patch clamp | – | D577E | – | Hill coefficient | 1.72 ± 0.61
CON(C(=O)c1cn(C)nc1C(F)F)C(C)Cc1c(Cl)cc(Cl)cc1Cl (centres unmarked) | SDHD/SDHC/SDHB (Sus scrofa, UniProt A5GZW8+D0VWV4+Q007T0) | enzyme activity, inhibitor, DCIP reduction | pig | 0.3 µM, together with: DCIP 5 µM | – | reaction velocity | 0.00144 µM/s and 0.0014 µM/s and 0.00138 µM/s
CN(C)[C@H]1C[C@@]23CC[C@@]4(O2)C(=CC[C@]2(C)[C@@H](c5ccc6ccncc6c5)CC[C@H]24)C=C3[C@@H](O)[C@@H]1O | Serine/threonine-protein kinase N1 (PKN1, Homo sapiens, UniProt Q16512) | ATP probe labelling, inhibitor, KiNativ profiling | – | 1 µM | – | inhibition | -6.9%
CC(C)[C@H]1NC(=O)C[C@H]2/C=C/CCSSC[C@@H](NC1=O)C(=O)N[C@H](Cc1cccc3ccccc13)C(=O)NCC(=O)O2 | Mitogen-activated protein kinase kinase kinase 1 (MAP3K1, Homo sapiens, UniProt Q13233) | – | – | 10 µM | – | inhibition | 2.7%
CC[C@H](C)[C@@H]1NC(=O)[C@H](CC(C)C)NC(=O)CNC(=O)[C@H](CCCNC(=N)N)NC(=O)[C@H](Cc2c[nH]c3ccccc23)NC(=O)[C@H](CCSC)NC(=O)[C@H](CO)NC(=O)[C@H](CCC(=O)O)NC(=O)[C@H](Cc2ccccc2)NC(=O)[C@H](CC(=O)O)NC(=O)[C@H]([C@@H](C)O)NC(=O)CNC(=O)[C@H](CCC(=O)O)NC(=O)[C@H]([C@@H](C)O)NC(=O)CNC(=O)[C@H](CC(=O)O)NC1=O | E3 ubiquitin-protein ligase Mdm2 (MDM2, Homo sapiens, UniProt Q00987) | MDM2-ligand binding, inhibitor, AlphaLISA competition | – | 0.3906 µM, together with: GST-tagged MDM2 ligand | lower = stronger inhibition | AlphaLISA signal | 5440 a.u. and 5200 a.u. and 5340 a.u.
CN(C)CCCN1C(=O)CSC1c1ccccc1 (centres unmarked) | uncharacterized protein (Anopheles gambiae, UniProt Q7QFG0) | Ellman | – | 1000 µM, together with: acetylthiocholine | – | IC50 | inactive
CS(C)(=O)=Nc1ccc(-c2ccc(-c3nc4cc(O[C@@H]5CO[C@H]6[C@@H]5OC[C@H]6O)[nH]c4cc3F)cc2)cc1 | Tyrosine-protein kinase ABL1 (ABL1, Homo sapiens, UniProt P00519, H396P) | enzyme activity, inhibitor | – | 10 µM | – | inhibition | -7%
N[C@H](C(=O)N1CCCC1)C1CCN(c2nccc3c(-c4ncc(Cl)cc4Cl)cccc23)CC1 | Protein-arginine deiminase type-1 (PADI1, Homo sapiens, UniProt Q9ULC6) | enzyme activity | – | 0.006291 µM, together with: Ca2+ 0.25 mM | – | kcat | 0.409 s⁻¹ and 0.414 s⁻¹
CC[C@H](C)[C@H](NC(=O)[C@H](CCCNC(=N)N)NC(=O)[C@H](CCCNC(=N)N)NC(=O)[C@H](CC(C)C)NC(=O)[C@H](Cc1ccccc1)NC(=O)CNC(=O)CNC(=O)[C@@H](N)Cc1ccc(O)cc1)C(=O)N[C@@H](CCCNC(=N)N)C(=O)N1CCC[C@H]1C(=O)N[C@@H](CCCCN)C(=O)N[C@@H](CC(C)C)C(=O)N[C@@H](CCCCN)C(=O)O | Probable G-protein coupled receptor 139 (GPR139, Homo sapiens, UniProt Q6DWJ6) | G protein activation, agonist, BRET, item: Gα11 | HEK-293T/17 | 40 µM | reference: GαoA response | Emax | 61.7% and 53.1%
Nc1ccn(C2OC(COP(=O)(O)OP(=O)(O)OP(=O)(O)O)C(O)C2(F)F)c(=O)n1 (centres unmarked) | pyrG (Escherichia coli, UniProt P0A7E5, C268A) | enzyme activity | – | together with: UTP 0.05 mM | – | Hill coefficient | 1.7 ± 0.1
CCOC(=O)[C@@H]1Cc2c(cc([N+](=O)[O-])cc2[N+](=O)[O-])[C@H](O)[C@]12C(=O)Nc1ccc(Br)cc12 | Serine/threonine-protein kinase PAK 1 (PAK1, Homo sapiens, UniProt Q13153) | binding, competition with immobilised ligand | – | 0.1 µM | – | remaining binding | 81%
